Results collected from several papers.
Compare with care: the assays were run in different laboratories. “And” joins repeats or separate records; there may be more than shown. ± gives the spread as reported.

CN[C@H](CC(C)C)C(=O)N[C@H]1C(=O)N[C@@H](CC(N)=O)C(=O)N[C@H]2C(=O)N[C@H]3C(=O)N[C@H](C(=O)N[C@H](C(=O)O)c4cc(O)cc(O)c4-c4cc3ccc4O)[C@H](O)c3ccc(c(Cl)c3)Oc3cc2cc(c3O[C@@H]2O[C@H](CO)[C@@H](O)[C@H](O)[C@H]2O[C@H]2C[C@](C)(N)[C@H](O)[C@H](C)O2)Oc2ccc(cc2Cl)[C@H]1O — bacterial load (Staphylococcus epidermidis; 9397, female ICR mice, peritonitis, peritoneal fluid; dose not given): 4 log CFU and 6.21 log CFU and 5.76 log CFU and 4.92 log CFU and 3.52 log CFU
COC(=O)[C@H](Cc1c[nH]c2ccccc12)NCc1cc2ccccc2nc1OC — growth (Pseudomonas aeruginosa; 32 µg/mL, without pentamidine; baseline: control): 90.7%
N=C(N)c1ccc(OCc2ccc(Br)cc2COc2ccc(C(=N)N)cc2)cc1 — MIC of compound in combination (Escherichia coli; checkerboard; mcr-1 polymyxin-resistant; concentration not given, 20 h, added: rifampicin): 3.13 µg/mL
COC(=O)[C@@H](NCc1cc2ccccc2nc1OCc1ccccc1)C(C)C — growth (Pseudomonas aeruginosa; 2 µg/mL, added: pentamidine 100 µM; baseline: control): 97.9%
CC(=Nc1ccc(N=Cc2ccc3[nH]cnc3c2)cc1)N(C)C — worm burden reduction (Necator americanus; infected hamsters; oral, 25 mg/kg single dose, 49 days post infection): 100%
CC(=O)N1CCC(C(=O)N2CCN3C(=O)c4cc(-c5ccccc5)ccc4NC(=O)C3C2)CC1 (stereo not shown) — mean lifespan (Caenorhabditis elegans; N2; 1.56 µM): 20.5 days
CC(=O)NC[C@H]1CN(c2ccc(N3CCOCC3)c(F)c2)C(=O)O1 — MIC (Bifidobacterium longum; HM-847): < 2.96 µM
CC1(F)CN(C(=O)Cn2c(=O)c(C(=O)NCc3ccc(Cl)cc3)cc3nc(N4CCNC4=O)cnc32)C1 — EC50 (human cytomegalovirus; viral cytopathic effect; MRC-5, Davis; 168 h): 160 nM
N=C(N)c1ccc(OCc2ccccc2COc2ccc(C(=N)N)cc2)cc1 — MIC in combination (Escherichia coli; BW25113; concentration not given, lowest-FICI combination, added: rifampicin): 25 µg/mL
CCc1cc(C(=O)NC)c2nccc(N3CCc4c(cc(Cn5ccnc5)cc4-c4cn(C)nc4C(F)(F)F)C3=O)c2c1 — serum PLT change (Sprague Dawley rats; oral, 50 mg/kg once daily, 7 days; baseline: vehicle): 7.35%
CC(=Nc1ccc(N=Cc2cnccn2)cc1)N(C)C — worm count (Necator americanus; infected hamsters, small intestine; oral, 50 mg/kg single, 1 h): 15.6 ± 2.3
CCOC(=O)c1c(C)nc(NCCNc2ccnc3cc(Cl)ccc23)nc1-c1ccccc1 — EC50 (human cytomegalovirus; viral replication; HEL, Davis): > 4000 nM
N=C(N)c1ccc(OCc2cc(Br)cc(COc3ccc(C(=N)N)cc3)c2)cc1 — MIC of compound in combination (Escherichia coli; checkerboard; mcr-1 polymyxin-resistant; concentration not given, 20 h, added: rifampicin): 6.25 µg/mL
CC(=Nc1ccc(N=Cc2cnc3ccccc3n2)cc1)N(C)C — worm burden reduction (Necator americanus; infected hamsters; oral, 50 mg/kg single; baseline: untreated): 88.9 ± 4.2%
N#Cc1nc(-c2ccccc2)oc1N1CCCC1CO (stereo not shown) — EC50 (human cytomegalovirus; viral replication; HFF, AD169): < 50 nM
Cc1nc(NCCNc2ccnc3cc(Cl)ccc23)nc(-c2ccccc2[N+](=O)[O-])c1C(=O)OC(C)C — EC50 (human cytomegalovirus; viral replication; HEL, Davis): > 20000 nM
COC(=O)[C@@H](CCSC)NCc1cc2ccccc2nc1SC — growth (Pseudomonas aeruginosa; 4 µg/mL, added: pentamidine 50 µM; baseline: control): 101%
Cc1ccc(NC(=O)N2Cc3[nH]cnc3C[C@H]2c2nc(-c3ccc4c(c3)OCO4)no2)cc1 — mean lifespan (Caenorhabditis elegans; N2; 1.56 µM): 20.7 days
COc1cc2c(c(OC)c1OC)C(=O)c1c(cc(C)c(O)c1OC)C2=O — cell viability (HepaRG co-cultured with HK-2; MTT; 266.67 µM, 48 h; baseline: untreated control): 53 ± 8.76%
Cc1nc(NCCCNc2ccnc3cc(Cl)ccc23)nc(-c2cccc([N+](=O)[O-])c2)c1C(=O)OC(C)C — EC50 (human cytomegalovirus; viral replication; HEL, AD-169): > 4000 nM
CCc1nn(C)c2nc(-c3ccc(C(=O)O)cc3)nc(NCc3ccc(F)cc3)c12 — parasite number (Cryptosporidium parvum; HCT-8; EC50, 24 h; baseline: DMSO control): 37.1% and 35.6% and 45.5% and 39.9%
Cc1cc(OC(C)C)ccc1C(=O)C(C)(C)NC(=O)c1sccc1C — inhibition (Botrytis cinerea; germ tube elongation; B05.10; 0.01 µg/mL): 34 ± 32.8%
Cc1ccc(CCC(=O)Nc2nnc(S(N)(=O)=O)s2)cc1 — MIC (Bifidobacterium longum; HM-845): > 784 µM
Cn1cc(-c2ccc(-c3cncc(Cl)c3N3CCC4(CCNC4=O)CC3)cc2)cn1 — log2 fold change (COLO 205; gene expression, microarray, item: TNFRSF10B (DR5) mRNA; concentration not given, 2 h; baseline: untreated cells): 1.86
CCN1CCN(c2cc(N3CCN(CC)CC3)nc(NCCNc3ccnc4cc(Cl)ccc34)n2)CC1 — necrotic cells (COS-7; 30 µM, 24 h, 0.1% DMSO, unit not given; baseline: vehicle control): 2.72 ± 0.65
CC(C)n1ncc2c(C(=O)NCC3(C)CNC3)cc(C3CC3)nc21 — cell protection (Enterovirus D68; cytopathic effect; RD, US/IL/14-18956; 1500 nM): 101% and 98.9% and 100%
CC1(F)CN(C(=O)Cn2c(=O)c(C(=O)NCc3ccc(Cl)cc3)cc3nccnc32)C1 — EC50 (human cytomegalovirus; viral replication, GFP reporter; MRC-5, AD169-GFP): 3760 nM
CC(=O)NC[C@H]1CN(c2ccc(N3CCOCC3)c(F)c2)C(=O)O1 — ED50 (Streptococcus pneumoniae; -4, penicillin-resistant, mouse systemic infection; intravenous; survival): 19.7 mg/kg
CC1(F)CN(C(=O)Cn2c(=O)c(C(=O)NCc3ccc(Cl)cc3)cc3nc(N4CCN(CC(=O)O)C4=O)cnc32)C1 — EC50 (human cytomegalovirus; viral replication, GFP reporter; MRC-5, AD169-GFP): 1280 nM
CC(=Nc1ccc(N=Cc2ccc3c(c2)OCCO3)cc1)N(C)C — worm burden reduction (Necator americanus; infected hamsters; oral, 50 mg/kg single; baseline: untreated): 81.7 ± 14.5%
Nc1nc(O)c2ncn(COC(CO)CO)c2n1 — EC90 (Human betaherpesvirus 5; viral replication, virus yield reduction; HFF, AD169): 2110 nM
Cc1cn([C@@H]2O[C@H](CO)[C@@H](O)[C@H]2O)c(=O)nc1N — viability (OCI-Ly1; 0.5 µM, 120 h): 97.3%
CN[C@H](CC(C)C)C(=O)N[C@H]1C(=O)N[C@@H](CC(N)=O)C(=O)N[C@H]2C(=O)N[C@H]3C(=O)N[C@H](C(=O)N[C@H](C(=O)O)c4cc(O)cc(O)c4-c4cc3ccc4O)[C@H](O)c3ccc(c(Cl)c3)Oc3cc2cc(c3O[C@@H]2O[C@H](CO)[C@@H](O)[C@H](O)[C@H]2O[C@H]2C[C@](C)(N)[C@H](O)[C@H](C)O2)Oc2ccc(cc2Cl)[C@H]1O — MIC50 (Staphylococcus aureus; MRSA, 10 isolates; serum 50%): 4 µg/mL
CC1(F)CN(C(=O)Cn2c(=O)c(C(=O)NCc3ccc(Cl)cc3)cc3nc(N4CCCC4=O)cnc32)C1 — EC50 (human cytomegalovirus; viral replication, GFP reporter; MRC-5, AD169-GFP): 169 nM
CC(=Nc1ccc(N=Cc2c[nH]cn2)cc1)N(C)C — worm burden reduction (Necator americanus; infected hamsters; oral, 50 mg/kg single; baseline: untreated): 100%
COC(=O)[C@H](Cc1c[nH]c2ccccc12)NCc1cc2ccccc2nc1SC — growth (Pseudomonas aeruginosa; 64 µg/mL, added: pentamidine 50 µM; baseline: control): 81.2%
O=C(O)C[C@H](O)C[C@H](O)/C=C/c1c(C2CC2)nc2ccccc2c1-c1ccc(F)cc1 — necrotic cells (COS-7; 30 µM, 24 h, 0.1% DMSO, unit not given; baseline: vehicle control): 0.88 ± 0.16
CNCCN1CCN(c2cnc3c(cc(C(=O)NCc4ccc(Cl)cc4)c(=O)n3CC(=O)N3CC(C)(F)C3)n2)C1=O — EC50 (human cytomegalovirus; viral replication, GFP reporter; MRC-5, AD169-GFP): 207 nM
CC(=Nc1ccc(N=Cc2ccc3[nH]ccc3c2)cc1)N(C)C — worm burden reduction (Necator americanus; infected hamsters; oral, 25 mg/kg single dose, 49 days post infection): 49 ± 18.2%
Nc1nc(=S)c2[nH]cnc2[nH]1 — viability (OCI-Ly1; 0.5 µM, 120 h): 66.2%
CC(C)C[C@H](NC(=O)[C@H](Cc1ccccc1)NC(=O)c1cnccn1)B(O)O — protein level (Spodoptera frugiperda; degrader, targeted LC-MS, item: BRD3 (S. frugiperda); Sf9; concentration not given, compound alone): 83.5% and 72.3% and 95.3% and 97%
Cc1ccc(-c2nc(C#N)c(N(C)S(=O)(=O)c3ccc(C)cc3)o2)cc1 — EC50 (human cytomegalovirus; viral replication; HFF, AD169): 1070 nM
CC(C)C[C@H](NC(=O)C[C@H](O)[C@H](CC(C)C)NC(=O)[C@H](Cc1c[nH]cn1)NC(=O)CNC(=O)[C@@H](NC(=O)[C@H](C)NC(=O)[C@H](Cc1c[nH]c2ccccc12)NC(=O)[C@H](CCC(N)=O)NC(=O)[C@@H](Cc1ccccc1)NC(=O)COCCOCCNC(=O)CCC(C(=O)O)N1CCN(CC(=O)O)CCN(CC(=O)O)CCN(CC(=O)O)CC1)C(C)C)C(N)=O (stereo partly shown) [lutetium-177 labelled] — tissue uptake (BALB/c nu/nu mice, female, bladder; 100 pmol, 30 min, time course 0.5 h, added: PA 300 µg): 81 ± 64 %ID/g
CC[C@H]1OC(=O)[C@H](C)[C@@H](O[C@H]2C[C@@](C)(OC)[C@@H](O)[C@H](C)O2)[C@H](C)[C@@H](O[C@@H]2O[C@H](C)C[C@H](N(C)C)[C@H]2O)[C@](C)(OC)C[C@@H](C)C(=O)[C@H](C)[C@@H](O)[C@]1(C)O — MIC50 (Mycobacterium avium; resazurin microtitre; 104; 4 days, 37 °C): 0.2 µM
CC(=Nc1ccc(N=Cc2ccc[nH]2)cc1)N(C)C — worm burden reduction (Necator americanus; infected hamsters; oral, 50 mg/kg single; baseline: untreated): 100%
Nc1nc(-c2ccccc2)nc2[nH]nc(Nc3ccc(C(F)(F)F)cc3)c12 — clinical score (coxsackievirus B3; 31-1-93, NMRI mice, CVB3 chronic myocarditis; oral, 100 mg/kg twice daily, day 2, dosed days 3 to 10, score scale 0 to 7; direction not given): 0.1

A few entries again:
COC(=O)[C@H](Cc1c[nH]c2ccccc12)NCc1cc2ccccc2nc1SC — growth (Pseudomonas aeruginosa; 64 µg/mL, added: pentamidine 50 µM; baseline: control): 81.2%
Cc1cc(OC(C)C)ccc1C(=O)C(C)(C)NC(=O)c1sccc1C — inhibition (Botrytis cinerea; germ tube elongation; B05.10; 0.01 µg/mL): 34 ± 32.8%
CCc1nn(C)c2nc(-c3ccc(C(=O)O)cc3)nc(NCc3ccc(F)cc3)c12 — parasite number (Cryptosporidium parvum; HCT-8; EC50, 24 h; baseline: DMSO control): 37.1% and 35.6% and 45.5% and 39.9%
